Measurements pooled from the literature.
Compare with care: the assays were run in different laboratories.
Sequence of UniProt Q59H18 (whole entry, looked up): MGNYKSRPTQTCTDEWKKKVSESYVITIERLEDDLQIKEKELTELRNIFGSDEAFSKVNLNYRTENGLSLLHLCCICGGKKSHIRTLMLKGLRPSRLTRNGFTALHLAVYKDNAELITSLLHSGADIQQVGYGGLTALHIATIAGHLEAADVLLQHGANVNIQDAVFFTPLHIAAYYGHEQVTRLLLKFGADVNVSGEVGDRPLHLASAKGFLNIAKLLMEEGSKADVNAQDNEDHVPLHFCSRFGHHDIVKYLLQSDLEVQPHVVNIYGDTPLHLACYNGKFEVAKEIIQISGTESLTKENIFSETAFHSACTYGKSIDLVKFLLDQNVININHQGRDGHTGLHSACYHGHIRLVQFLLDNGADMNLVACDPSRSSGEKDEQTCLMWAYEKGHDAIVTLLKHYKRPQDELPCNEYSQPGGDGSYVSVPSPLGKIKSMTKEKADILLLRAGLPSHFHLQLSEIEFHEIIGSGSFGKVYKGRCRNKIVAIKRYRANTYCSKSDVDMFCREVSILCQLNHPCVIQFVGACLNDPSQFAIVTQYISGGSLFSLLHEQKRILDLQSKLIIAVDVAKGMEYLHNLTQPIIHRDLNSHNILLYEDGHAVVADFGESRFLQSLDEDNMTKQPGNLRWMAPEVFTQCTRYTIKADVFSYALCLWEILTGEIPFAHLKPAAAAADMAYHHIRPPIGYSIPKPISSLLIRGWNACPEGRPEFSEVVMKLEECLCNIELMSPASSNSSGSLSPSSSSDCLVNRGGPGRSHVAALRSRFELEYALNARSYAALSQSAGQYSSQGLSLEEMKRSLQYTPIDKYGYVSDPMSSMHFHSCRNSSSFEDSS
Sequence of UniProt Q9BQI3 (whole entry, looked up): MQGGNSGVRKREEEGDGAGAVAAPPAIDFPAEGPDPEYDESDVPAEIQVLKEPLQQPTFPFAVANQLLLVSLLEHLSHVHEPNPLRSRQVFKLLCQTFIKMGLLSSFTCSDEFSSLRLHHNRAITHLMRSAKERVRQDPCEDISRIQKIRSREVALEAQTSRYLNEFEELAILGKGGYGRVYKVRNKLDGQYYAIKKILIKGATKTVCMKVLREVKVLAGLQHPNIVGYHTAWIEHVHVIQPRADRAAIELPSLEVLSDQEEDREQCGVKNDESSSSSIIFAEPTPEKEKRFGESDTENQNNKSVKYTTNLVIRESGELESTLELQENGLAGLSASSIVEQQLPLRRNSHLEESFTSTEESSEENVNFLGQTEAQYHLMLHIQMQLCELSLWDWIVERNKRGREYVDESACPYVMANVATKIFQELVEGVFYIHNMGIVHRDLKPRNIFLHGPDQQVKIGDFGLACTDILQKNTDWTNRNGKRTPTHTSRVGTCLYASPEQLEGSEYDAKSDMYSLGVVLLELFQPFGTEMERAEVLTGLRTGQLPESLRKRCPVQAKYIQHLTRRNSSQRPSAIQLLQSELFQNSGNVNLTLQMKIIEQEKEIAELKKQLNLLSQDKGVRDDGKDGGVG
Sequence of UniProt P42336 (whole entry, unmodified, looked up): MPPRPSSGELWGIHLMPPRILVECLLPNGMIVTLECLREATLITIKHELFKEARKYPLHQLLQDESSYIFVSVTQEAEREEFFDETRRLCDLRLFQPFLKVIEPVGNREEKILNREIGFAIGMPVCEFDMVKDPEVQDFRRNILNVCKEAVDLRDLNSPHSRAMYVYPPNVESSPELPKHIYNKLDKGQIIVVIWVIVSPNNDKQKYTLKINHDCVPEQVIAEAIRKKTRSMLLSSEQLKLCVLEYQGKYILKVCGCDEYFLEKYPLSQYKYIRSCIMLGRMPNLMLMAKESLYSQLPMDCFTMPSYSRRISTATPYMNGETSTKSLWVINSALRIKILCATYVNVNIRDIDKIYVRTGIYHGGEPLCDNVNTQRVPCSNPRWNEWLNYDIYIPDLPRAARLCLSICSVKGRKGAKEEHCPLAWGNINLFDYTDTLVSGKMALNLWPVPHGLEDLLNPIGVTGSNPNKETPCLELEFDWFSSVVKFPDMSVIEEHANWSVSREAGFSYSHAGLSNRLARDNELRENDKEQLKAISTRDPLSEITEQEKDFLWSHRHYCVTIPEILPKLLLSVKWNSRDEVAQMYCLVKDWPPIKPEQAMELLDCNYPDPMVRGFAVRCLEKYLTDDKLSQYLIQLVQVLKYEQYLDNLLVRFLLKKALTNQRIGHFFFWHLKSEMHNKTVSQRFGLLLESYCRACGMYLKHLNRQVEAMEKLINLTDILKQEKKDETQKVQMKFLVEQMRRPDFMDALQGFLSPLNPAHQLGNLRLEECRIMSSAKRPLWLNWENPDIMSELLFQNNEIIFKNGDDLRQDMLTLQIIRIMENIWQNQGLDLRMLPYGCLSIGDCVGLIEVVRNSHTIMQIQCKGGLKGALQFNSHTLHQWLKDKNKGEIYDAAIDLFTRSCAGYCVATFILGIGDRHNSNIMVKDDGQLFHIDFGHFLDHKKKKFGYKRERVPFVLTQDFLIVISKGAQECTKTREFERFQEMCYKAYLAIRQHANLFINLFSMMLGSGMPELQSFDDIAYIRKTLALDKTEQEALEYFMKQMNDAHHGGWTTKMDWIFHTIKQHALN
Sequence of UniProt Q9Y616 (whole entry, looked up): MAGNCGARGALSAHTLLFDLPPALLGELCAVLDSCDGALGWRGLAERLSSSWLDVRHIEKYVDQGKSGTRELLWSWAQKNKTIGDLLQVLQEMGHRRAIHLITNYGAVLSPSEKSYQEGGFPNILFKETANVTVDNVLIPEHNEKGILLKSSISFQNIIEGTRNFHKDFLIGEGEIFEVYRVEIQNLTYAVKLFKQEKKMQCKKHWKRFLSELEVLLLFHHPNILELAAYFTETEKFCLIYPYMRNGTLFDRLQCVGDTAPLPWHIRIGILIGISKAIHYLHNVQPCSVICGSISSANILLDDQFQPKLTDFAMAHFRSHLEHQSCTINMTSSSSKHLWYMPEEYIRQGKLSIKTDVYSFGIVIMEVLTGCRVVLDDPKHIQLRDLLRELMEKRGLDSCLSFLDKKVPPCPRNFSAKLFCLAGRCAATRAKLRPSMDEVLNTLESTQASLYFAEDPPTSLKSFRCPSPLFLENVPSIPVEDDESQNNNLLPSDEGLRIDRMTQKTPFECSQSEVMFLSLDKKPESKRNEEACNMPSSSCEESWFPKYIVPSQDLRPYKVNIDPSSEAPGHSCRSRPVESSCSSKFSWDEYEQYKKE
Sequence of UniProt P37288 (whole entry, looked up): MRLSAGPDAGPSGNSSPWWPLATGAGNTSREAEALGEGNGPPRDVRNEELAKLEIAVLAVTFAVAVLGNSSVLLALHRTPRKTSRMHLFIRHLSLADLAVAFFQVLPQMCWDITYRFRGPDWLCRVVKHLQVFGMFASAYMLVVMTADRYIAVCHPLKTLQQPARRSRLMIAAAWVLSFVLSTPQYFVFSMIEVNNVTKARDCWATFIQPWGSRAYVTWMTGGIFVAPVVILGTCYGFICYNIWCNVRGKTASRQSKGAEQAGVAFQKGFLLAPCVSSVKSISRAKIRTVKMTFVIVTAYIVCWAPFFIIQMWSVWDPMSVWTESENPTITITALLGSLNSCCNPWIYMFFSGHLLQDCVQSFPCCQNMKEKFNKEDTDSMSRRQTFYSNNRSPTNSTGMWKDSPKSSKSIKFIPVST
Sequence of UniProt Q9H3N8 (whole entry, looked up): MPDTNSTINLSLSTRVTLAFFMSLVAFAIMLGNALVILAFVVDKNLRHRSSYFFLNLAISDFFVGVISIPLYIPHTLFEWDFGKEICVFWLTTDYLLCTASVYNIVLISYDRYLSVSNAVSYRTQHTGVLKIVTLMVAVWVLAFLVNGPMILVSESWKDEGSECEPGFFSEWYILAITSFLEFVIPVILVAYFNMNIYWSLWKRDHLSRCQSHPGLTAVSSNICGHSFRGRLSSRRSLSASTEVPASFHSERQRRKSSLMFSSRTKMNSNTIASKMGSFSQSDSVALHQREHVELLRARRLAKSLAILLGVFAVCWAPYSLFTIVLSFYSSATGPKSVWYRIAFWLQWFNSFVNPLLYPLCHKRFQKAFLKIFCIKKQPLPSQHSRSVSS

C#Cc1n[nH]c2c(-c3cn([C@@H](C)c4ccccn4)c(=O)[nH]c3=O)cc(F)cc12
inhibition (Serine/threonine-protein kinase mTOR (MTOR, Homo sapiens, UniProt P42345); enzyme activity, inhibitor; 0.1 µM): 10.4%

CCN(CC)CCCC[C@H](NC(=O)[C@H](CC(C)C)NC(=O)[C@H](C)NC(=O)[C@H](Cc1ccccc1)NC(=O)c1ccc(C(C)(C)C)cc1)C(=O)N[C@@H](CO)C(=O)OC
ΔTm (Protein polybromo-1, BD1 (PBRM1, Homo sapiens, UniProt Q86U86); thermal stability, DSF; 25 µM): -0.03 °C

Nc1ncc(-c2nc(N3CCOCC3)nc(N3CCOCC3)n2)c(C(F)F)n1
remaining binding (Eukaryotic translation initiation factor 2-alpha kinase 1 (EIF2AK1, Homo sapiens, UniProt Q9BQI3); binding, competition with immobilised ligand; 10 µM): 85%

[2H]c1c([2H])c([C@]2([2H])CCCN2C(=O)C(C)(C)Oc2ccc3cn[nH]c3c2)c([2H])c([2H])c1C([2H])([2H])[2H]
remaining binding (Serine/threonine-protein kinase TNNI3K (TNNI3K, Homo sapiens, UniProt Q59H18); binding, competition with immobilised ligand; 1 µM): 47%

COc1ncccc1-c1cnn2ccc(N3CCN(C(=O)OC(C)C)CC3)nc12
remaining binding (Interleukin-1 receptor-associated kinase 3 (IRAK3, Homo sapiens, UniProt Q9Y616); binding, competition with immobilised ligand; 1 µM): 88%

CC(C)CC(=O)OC[C@H]1O[C@@](C#N)(c2ccc3c(N)ncnn23)[C@H](O)[C@@H]1O
inhibition (Vasopressin V1a receptor (AVPR1A, Homo sapiens, UniProt P37288); cell-free assay; 20 µM): -1%

Cc1nn(C)cc1-c1nc2c(N3CCN(Cc4ccc(Cl)cc4)CC3)c(Cl)cnc2[nH]1
remaining binding (Phosphatidylinositol 4,5-bisphosphate 3-kinase catalytic subunit alpha isoform (PIK3CA, Homo sapiens, UniProt P42336, I800L); binding, competition with immobilised ligand; 1 µM): 90%

c1cncc([C@@H]2CCCN2)c1
inhibition (Histamine H4 receptor (HRH4, Homo sapiens, UniProt Q9H3N8); ligand displacement; 50 µM): -11.1%

Repeated from above:
c1cncc([C@@H]2CCCN2)c1
inhibition (Histamine H4 receptor (HRH4, Homo sapiens, UniProt Q9H3N8); ligand displacement; 50 µM): -11.1%
